Experimental data from different studies.
Lines come from different studies, so protocols differ. Numbers after ± are the reported error.

Structure (SMILES)	organism	test	test system	conditions	how to read	quantity	result
O=[N+]([O-])c1ccc(N2CCN(CCC(O)c3ccc(F)cc3)CC2)c(C(F)(F)F)c1 (centres unmarked)	Salmonella typhimurium	genotoxicity, SOS/umu test	TA1535/pSK1002	0.004 mg/mL, 4 h, with S9, lower range		induction factor	1.1
CC(C)N(C)N=O	Salmonella typhimurium	mutagenicity, Ames plate incorporation	TA1535	5000 µg/plate, 3 d, without S9, methanol		revertant colonies per plate	33 ± 7
CC1(F)CN(C(=O)Cn2c(=O)c(C(=O)NCc3ccc(Cl)cc3)cc3nc(N4CCNC4=O)cnc32)C1	human cytomegalovirus		MRC-5, Davis		relative to: CC50 over EC50	selectivity ratio	> 253
[Cl-].[Cl-].[Pt+2].[Ru+2].c1ccc(-c2nccnc2-c2ccccn2)nc1.c1cnc2c(c1)ccc1cccnc12.c1cnc2c(c1)ccc1cccnc12	Danio rerio		embryos	60 µM, 0 h		survival rate	100%
CN1CCCN(S(=O)(=O)c2ccc(-c3ccc4c(Nc5ccc(OCc6cccc(F)c6)c(Cl)c5)ccnc4c3)cc2)CC1	Trypanosoma cruzi		NIH 3T3, 2% FBS medium	96 h	relative to: NIH 3T3 TC50 over T. cruzi EC50	selectivity ratio	15
OC(CCN1CC=C(c2ccc(F)cc2)CC1)c1ccc(F)c2ccccc12 (centres unmarked)	Salmonella typhimurium	SOS/umu test	TA1535/pSK1002	0.016 mg/mL, 4 h, with S9, lower range		survival	115%
COCCN(CCOC)N=O	Salmonella typhimurium	mutagenicity, Ames plate incorporation	TA1535	500 µg/plate, 3 d, without S9, methanol		revertant colonies per plate	16 ± 6
Cc1cc(C#N)cc(C)c1Oc1nc(Nc2ccc(C#N)cc2)nc(N)c1Br	HIV-1	MTT	MT4, RT L100I/V179D/Y181C mutant		relative to: CC50 over EC50	selectivity index	> 27
Cc1cc(C(=O)NC(C)(C)COc2cccc3c2C(N)=NS(=O)(=O)N3)cc(C)n1	Escherichia coli	Ames test, initial	WP2 uvrA	15.0 µg/plate	relative to: solvent control	revertant ratio	0.9
Cc1cn([C@H]2C[C@H](N=[N+]=[N-])[C@@H](CO)O2)c(=O)[nH]c1=O	HIV-1	MTT	MT4, RT A98G/V106I/V179D/Y181C/G333E mutant		relative to: CC50 over EC50	selectivity index	> 153
CCCCc1ccc(CNc2nc(N(C)C)nc(N(C)C)c2/N=N/c2ccc(Cl)cc2)cc1	Plutella xylostella	leaf dipping		50 mg/L, 96 h		mortality	83.3 ± 10%
[Cl-].[Cl-].[Pt+2].[Ru+2].c1ccc(-c2nc3cc4ccccc4cc3nc2-c2ccccn2)nc1.c1cnc2c(c1)ccc1cccnc12.c1cnc2c(c1)ccc1cccnc12	Danio rerio		embryos	15 µM, 96 h		hatching rate	70 ± 7.1%
N#C[C@@]1(n2ccc(N)nc2=O)O[C@H](CO)[C@@H](O)[C@H]1O	Salmonella typhimurium		TA1537	2.5 µM, without S9		viability	89%
COc1cccc(-c2n[nH]c(SCc3ccccn3)n2)c1OC	Escherichia coli	Ames test, plate incorporation	WP2 uvrA	0.25 mg/plate, with rat liver S9		revertant colonies per plate	41
CN1CCCN(S(=O)(=O)c2ccc(-c3ccc4ncnc(Nc5ccc(OCc6cccc(F)c6)c(Cl)c5)c4c3)cc2)CC1	Trypanosoma cruzi		NIH 3T3, 2% FBS medium	96 h	relative to: NIH 3T3 TC50 over T. cruzi EC50	selectivity ratio	85.6
[Cl-].[Cl-].[Pt+2].[Ru+2].c1ccc(-c2nc3ccccc3nc2-c2ccccn2)nc1.c1cnc2c(c1)ccc1cccnc12.c1cnc2c(c1)ccc1cccnc12	Danio rerio		embryos	75 µM, 48 h		survival rate	63.3 ± 4.4%
Fc1ccc(C2=CCNCC2)cc1	Salmonella typhimurium	SOS/umu test	TA1535/pSK1002	0.001 mg/mL, 4 h, without S9 activation		survival	104%
CC(=O)N1CCC(C(=O)N2CCN3C(=O)c4cc(-c5ccccc5)ccc4NC(=O)C3C2)CC1 (centres unmarked)	Escherichia coli		WP2 uvrA	1581 µg/plate, with rat liver S9	relative to: vehicle	revertant fold increase	0.9
CN1CCCN(S(=O)(=O)c2ccc(-c3ccc4ncc(C#N)c(Nc5ccc(OCc6ccccc6)c(Cl)c5)c4c3)cc2)CC1	Trypanosoma cruzi		NIH 3T3, 2% FBS medium	96 h	relative to: NIH 3T3 TC50 over T. cruzi EC50	selectivity ratio	12
O=[N+]([O-])c1ccc(N2CCC(NCCC(O)c3ccc(F)c4ccccc34)CC2)c(C(F)(F)F)c1 (centres unmarked)	Salmonella typhimurium	SOS/umu test	TA1535/pSK1002	0.002 mg/mL, 4 h, without S9, full range		survival	51.4%

For quick reference, copied from above:
Structure (SMILES)	organism	test	test system	conditions	how to read	quantity	result
Cc1cc(C#N)cc(C)c1Oc1nc(Nc2ccc(C#N)cc2)nc(N)c1Br	HIV-1	MTT	MT4, RT L100I/V179D/Y181C mutant		relative to: CC50 over EC50	selectivity index	> 27
